Results from different studies.
Compare with care: the assays were run in different laboratories. Values joined by “and” are separate records of one study, mostly repeats; a detail may differ. Numbers after ± are the reported error.
KCNT1: Potassium channel subfamily T member 1 (KCNT1, Homo sapiens, UniProt Q5JUK3)
Chain of UniProt Q5JUK3 (whole entry, looked up): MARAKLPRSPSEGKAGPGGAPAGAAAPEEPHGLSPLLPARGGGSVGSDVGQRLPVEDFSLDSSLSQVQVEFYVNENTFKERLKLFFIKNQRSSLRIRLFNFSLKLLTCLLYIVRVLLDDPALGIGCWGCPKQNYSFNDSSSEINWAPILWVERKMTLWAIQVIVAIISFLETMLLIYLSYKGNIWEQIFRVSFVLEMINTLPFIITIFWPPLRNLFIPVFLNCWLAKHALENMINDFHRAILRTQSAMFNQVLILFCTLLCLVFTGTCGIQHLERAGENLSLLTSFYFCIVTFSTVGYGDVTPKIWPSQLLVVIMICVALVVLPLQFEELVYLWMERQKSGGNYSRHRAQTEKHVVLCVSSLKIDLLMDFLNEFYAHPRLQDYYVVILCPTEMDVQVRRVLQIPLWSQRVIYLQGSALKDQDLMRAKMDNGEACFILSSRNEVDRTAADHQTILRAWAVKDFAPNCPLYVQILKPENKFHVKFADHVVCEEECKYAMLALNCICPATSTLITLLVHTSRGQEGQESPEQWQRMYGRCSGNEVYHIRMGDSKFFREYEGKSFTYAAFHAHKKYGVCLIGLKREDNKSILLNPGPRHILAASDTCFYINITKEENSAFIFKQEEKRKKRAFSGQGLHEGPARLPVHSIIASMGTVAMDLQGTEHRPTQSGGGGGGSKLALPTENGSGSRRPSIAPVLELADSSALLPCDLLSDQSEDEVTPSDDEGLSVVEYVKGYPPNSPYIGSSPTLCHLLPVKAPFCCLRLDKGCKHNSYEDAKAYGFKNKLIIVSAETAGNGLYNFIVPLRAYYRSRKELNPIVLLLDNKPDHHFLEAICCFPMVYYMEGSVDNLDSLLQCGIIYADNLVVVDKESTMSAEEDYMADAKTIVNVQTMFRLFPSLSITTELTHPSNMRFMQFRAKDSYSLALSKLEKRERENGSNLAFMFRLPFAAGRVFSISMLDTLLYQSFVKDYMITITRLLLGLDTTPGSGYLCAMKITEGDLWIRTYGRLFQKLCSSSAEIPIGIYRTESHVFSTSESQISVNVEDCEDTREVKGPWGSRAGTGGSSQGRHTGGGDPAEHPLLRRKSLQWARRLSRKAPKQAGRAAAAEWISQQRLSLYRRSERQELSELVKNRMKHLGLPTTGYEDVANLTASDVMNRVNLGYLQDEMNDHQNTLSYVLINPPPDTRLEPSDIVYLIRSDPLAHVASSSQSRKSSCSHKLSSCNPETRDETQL
YAP1 WW1 domain: Transcriptional coactivator YAP1, WW1 domain (YAP1, Homo sapiens, UniProt P46937)
Kelch domain-containing protein 2: Kelch domain-containing protein 2 (UniProt Q9Y2U9)
Chain of UniProt Q9Y2U9 (whole entry, looked up): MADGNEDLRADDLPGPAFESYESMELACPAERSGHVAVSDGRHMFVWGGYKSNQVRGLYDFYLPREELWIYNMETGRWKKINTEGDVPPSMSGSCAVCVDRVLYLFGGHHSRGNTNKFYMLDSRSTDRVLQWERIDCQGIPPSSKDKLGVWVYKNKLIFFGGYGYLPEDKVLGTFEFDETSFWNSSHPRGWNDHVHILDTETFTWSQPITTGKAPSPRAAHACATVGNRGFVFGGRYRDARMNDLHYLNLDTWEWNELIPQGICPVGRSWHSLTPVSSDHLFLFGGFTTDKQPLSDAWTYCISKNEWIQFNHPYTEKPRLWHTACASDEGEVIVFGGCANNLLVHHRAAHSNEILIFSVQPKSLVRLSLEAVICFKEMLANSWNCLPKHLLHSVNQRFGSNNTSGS
T1: miR-21 precursor (Homo sapiens); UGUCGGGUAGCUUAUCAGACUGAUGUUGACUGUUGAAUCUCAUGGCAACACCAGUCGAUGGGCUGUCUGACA
T2: DNA aptamer; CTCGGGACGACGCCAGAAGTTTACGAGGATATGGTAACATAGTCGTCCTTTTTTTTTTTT
Chain of UniProt Q9NZ08 (whole entry, unmodified, looked up): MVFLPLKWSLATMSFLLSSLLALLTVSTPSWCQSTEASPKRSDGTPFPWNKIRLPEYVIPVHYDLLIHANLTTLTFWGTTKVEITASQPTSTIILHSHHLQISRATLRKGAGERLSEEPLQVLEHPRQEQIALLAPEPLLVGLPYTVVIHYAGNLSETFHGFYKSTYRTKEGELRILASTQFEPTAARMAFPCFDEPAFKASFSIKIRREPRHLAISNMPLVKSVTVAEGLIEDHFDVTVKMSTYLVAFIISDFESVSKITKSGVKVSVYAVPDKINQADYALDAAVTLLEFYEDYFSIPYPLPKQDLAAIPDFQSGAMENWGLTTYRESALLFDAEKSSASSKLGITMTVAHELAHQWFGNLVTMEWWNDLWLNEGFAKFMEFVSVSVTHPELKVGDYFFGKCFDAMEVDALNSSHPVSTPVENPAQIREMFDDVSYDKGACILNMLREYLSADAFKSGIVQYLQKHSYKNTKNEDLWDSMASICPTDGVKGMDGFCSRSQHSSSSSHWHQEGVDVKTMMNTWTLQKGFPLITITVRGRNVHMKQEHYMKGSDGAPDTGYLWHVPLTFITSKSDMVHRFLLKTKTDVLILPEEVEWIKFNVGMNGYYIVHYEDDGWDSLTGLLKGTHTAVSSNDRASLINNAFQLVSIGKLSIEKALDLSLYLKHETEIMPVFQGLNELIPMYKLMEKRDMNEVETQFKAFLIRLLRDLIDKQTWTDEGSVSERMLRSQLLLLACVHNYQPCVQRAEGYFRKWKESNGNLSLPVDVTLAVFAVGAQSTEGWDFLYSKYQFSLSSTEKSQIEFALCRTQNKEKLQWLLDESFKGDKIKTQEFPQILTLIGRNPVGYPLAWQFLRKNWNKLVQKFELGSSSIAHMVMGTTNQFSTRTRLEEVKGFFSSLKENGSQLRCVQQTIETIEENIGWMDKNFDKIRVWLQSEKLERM
Chain of UniProt P12081 (whole entry, unmodified, looked up): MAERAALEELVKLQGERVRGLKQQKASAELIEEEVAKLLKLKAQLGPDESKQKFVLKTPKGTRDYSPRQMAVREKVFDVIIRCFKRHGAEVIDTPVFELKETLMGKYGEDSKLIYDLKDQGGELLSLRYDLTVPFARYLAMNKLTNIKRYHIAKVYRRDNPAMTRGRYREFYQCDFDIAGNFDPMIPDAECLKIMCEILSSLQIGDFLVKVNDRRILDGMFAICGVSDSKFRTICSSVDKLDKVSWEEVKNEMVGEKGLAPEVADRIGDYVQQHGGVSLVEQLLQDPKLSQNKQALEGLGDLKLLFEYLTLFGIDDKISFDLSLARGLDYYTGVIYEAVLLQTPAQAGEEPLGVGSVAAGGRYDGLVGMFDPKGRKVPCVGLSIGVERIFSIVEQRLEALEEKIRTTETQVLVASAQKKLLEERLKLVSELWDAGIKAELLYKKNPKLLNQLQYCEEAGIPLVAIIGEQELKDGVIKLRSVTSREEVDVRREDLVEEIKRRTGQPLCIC
Chain of UniProt P23979 (whole entry, looked up): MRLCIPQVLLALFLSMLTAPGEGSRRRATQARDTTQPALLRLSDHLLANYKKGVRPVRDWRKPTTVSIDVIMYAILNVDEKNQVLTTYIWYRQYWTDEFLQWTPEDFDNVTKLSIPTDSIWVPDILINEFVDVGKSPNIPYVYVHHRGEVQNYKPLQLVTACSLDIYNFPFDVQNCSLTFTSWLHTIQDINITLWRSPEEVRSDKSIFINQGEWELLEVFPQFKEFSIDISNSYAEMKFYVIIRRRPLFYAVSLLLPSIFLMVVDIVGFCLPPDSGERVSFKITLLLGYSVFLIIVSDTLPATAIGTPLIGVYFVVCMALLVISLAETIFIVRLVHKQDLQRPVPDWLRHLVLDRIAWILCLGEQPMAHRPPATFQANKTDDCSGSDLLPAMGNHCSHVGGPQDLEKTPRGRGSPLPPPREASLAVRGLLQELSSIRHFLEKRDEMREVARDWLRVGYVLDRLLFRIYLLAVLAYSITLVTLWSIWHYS
Chain of UniProt P24612 (whole entry, unmodified, looked up): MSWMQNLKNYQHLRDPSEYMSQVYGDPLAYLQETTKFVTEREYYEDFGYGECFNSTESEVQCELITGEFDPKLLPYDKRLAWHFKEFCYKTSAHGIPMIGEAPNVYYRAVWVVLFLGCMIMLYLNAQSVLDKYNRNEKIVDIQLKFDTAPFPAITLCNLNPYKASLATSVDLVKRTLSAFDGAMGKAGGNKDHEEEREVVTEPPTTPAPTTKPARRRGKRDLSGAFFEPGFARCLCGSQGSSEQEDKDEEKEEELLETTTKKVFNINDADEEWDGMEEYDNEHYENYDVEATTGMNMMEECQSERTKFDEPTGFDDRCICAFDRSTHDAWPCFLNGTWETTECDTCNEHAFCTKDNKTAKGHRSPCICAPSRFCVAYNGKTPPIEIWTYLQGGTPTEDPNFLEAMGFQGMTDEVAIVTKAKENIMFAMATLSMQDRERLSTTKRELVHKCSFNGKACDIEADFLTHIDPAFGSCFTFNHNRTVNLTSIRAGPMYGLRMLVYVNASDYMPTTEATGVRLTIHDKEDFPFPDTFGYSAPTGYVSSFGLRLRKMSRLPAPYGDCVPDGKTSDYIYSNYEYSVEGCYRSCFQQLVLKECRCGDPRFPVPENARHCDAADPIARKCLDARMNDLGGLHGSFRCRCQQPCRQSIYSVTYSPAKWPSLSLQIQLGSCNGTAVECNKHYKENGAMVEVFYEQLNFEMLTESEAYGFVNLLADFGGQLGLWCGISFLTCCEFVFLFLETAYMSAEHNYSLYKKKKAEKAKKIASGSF
Chain of UniProt P0A334 (whole entry, looked up): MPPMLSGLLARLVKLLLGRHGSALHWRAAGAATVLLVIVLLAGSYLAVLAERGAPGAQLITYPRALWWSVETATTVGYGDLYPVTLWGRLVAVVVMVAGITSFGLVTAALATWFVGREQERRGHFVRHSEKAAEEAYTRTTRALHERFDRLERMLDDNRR

Molecule | target | test | test system | setting | scale | quantity | result
OC[C@@H]1[C@@H](O)[C@H](O)[C@@H](O)[C@@H]2O[C@H]12 | GBA1 (Homo sapiens, UniProt P04062, R534H) | enzyme activity, inhibitor |  | pH 5.2 |  | kinact/KI | 1300 M⁻¹ s⁻¹
c1cnc2c(c1)ccc1cccnc12 | Stromal processing peptidase, chloroplastic (SPP, Pisum sativum, UniProt Q40983) | transit peptide conversion | chloroplast extract |  |  | full inhibitory concentration | 10 mM
CCCCCCCC/C=C\CCCCCCCC(=O)OC[C@H](COP(=O)(O)OCC(O)COP(=O)(O)OC[C@@H](COC(=O)CCCCCCC/C=C\CCCCCCCC)OC(=O)CCCCCCC/C=C\CCCCCCCC)OC(=O)CCCCCCC/C=C\CCCCCCCC (stereo partly shown) | kcsA (Streptomyces lividans, UniProt P0A334) | channel opening, activator, contact bubble bilayer | POPC bilayer | 25 wt%, pH 4 inside, 7.5 outside, 100 mV |  | open probability | 30%
Cc1cc(C)c2cc(C#N)c(N3CCN(C(=O)c4ccncc4)CC3)nc2c1 | CFTR (Homo sapiens, UniProt P13569, del508-508) | iodide influx, potentiator | FRT expressing ΔF508-CFTR and YFP | up to 50 µM, low-temperature rescued, with: forskolin 20 µM |  | EC50 | inactive
IINFEKE | ERAP1 (Homo sapiens, UniProt Q9NZ08, V737R) | substrate | peptide | pH 8.0, 27 °C, mutant V737R, with: L-AMC, peptide activator 100 µM |  | Hill coefficient | 1.4
O=S(=O)(c1cccc2c1OCCC2)N1CC(c2nc(-c3ccc(F)cc3)no2)C1 | KCNT1 | ion current, activator, automated patch clamp | CHO | 30 µM | relative to: bepridil 60 µM | efficacy | 100%
N[C@@H](Cc1cnc[nH]1)C(=O)O | HARS1 (Homo sapiens, UniProt P12081) | thermal stability, DSF |  |  |  | ΔTm | 7 °C
Clc1ccc(SSc2ccc(Cl)cc2)cc1 | tubulin | colchicine binding, [3H]colchicine binding |  | 50 µM, 10 min, 37 °C, with: [3H]colchicine 5.0 µM |  | inhibition | 0 ± 4%
CN1CCCC2C(c3ccccc3)C(C3=NCCCC3)C(c3ccccc3)CC21 (stereo not shown) | T1, miR-21 precursor (Homo sapiens) | DSF |  | 3 µM, NaCl 0.25 mM |  | melting temperature shift | -14 °C
CC(C)[C@H](NC(=O)OCc1ccccc1)C(=O)N[C@H](C=O)Cc1ccccc1 | integrin alphaM beta2 (human) | ligand binding, inhibitor, flow cytometry | human neutrophils | concentration not given, 1 h, 37 °C, integrin clustering inhibitor, with: Alexa 488-labelled plasminogen | relative to: no inhibitor, lower means less binding | bound plasminogen fluorescence | 312 ± 35 MFI
COC1=C(OC)C(=O)C(C/C=C(\C)CC/C=C(\C)CC/C=C(\C)CCC=C(C)C)=C(C)C1=O | Prosaposin, Saposin B (PSAP, Homo sapiens, UniProt P07602) | binding, tyrosine fluorescence quenching |  | pH 5.5, 25 °C, 40 µM saposin B, 50 mM phosphate |  | log association constant | 5.1
IKPAKRMKFKTVCYLLVQLMHCRKMFKA | Calmodulin-1 (Calm1, Rattus norvegicus, UniProt P0DP29, D130A/D94A) | Ca2+ dissociation, stopped-flow quin-2 fluorescence | peptide | 2 µM, pH 7.4, 22 °C, with: Ca2+-calmodulin complex |  | koff1 | > 500 s⁻¹
CC(C)C[C@H](NC(=O)[C@@H](NC(=O)[C@@H](N)[C@@H](C)O)C(C)C)C(=O)N1CCC[C@H]1C(=O)N1CCC[C@H]1C(=O)N1CCC[C@H]1C(=O)N1CCC[C@H]1C(=O)N[C@@H](Cc1ccc(O)cc1)C(=O)N[C@@H](CCCNC(=N)N)C(=O)N[C@@H](C)C(=O)N[C@@H](CCCNC(=N)N)C(=O)N[C@@H](CC(N)=O)C(=O)O | YAP1 WW1 domain | binding, ITC |  | pH 7.0, 25 °C, WW1 domain |  | ΔG | -6.6 ± 0.17 kcal/mol
SSDHLFLFGG | Kelch domain-containing protein 2 | native mass spectrometry | peptide, 200 mM ammonium acetate | 20 µM Kelch domain-containing protein 2, pH 7 | relative to: total Kelch domain-containing protein 2 signal | fraction of protein bound | 1.8%
CCOc1ccccc1S(=O)(=O)N1CC(c2nc(-c3ccc(C)cc3)no2)C1 | KCNT1 | Tl+ flux, inhibitor | HEK293 expressing KCNT1 | 30 µM |  | activity class | inactive
CC(C)C[C@H](NC(=O)[C@@H](NC(=O)[C@@H](N)[C@@H](C)O)C(C)C)C(=O)N1CCC[C@H]1C(=O)N1CCC[C@H]1C(=O)N1CCC[C@H]1C(=O)N1CCC[C@H]1C(=O)N[C@@H](Cc1ccc(O)cc1)C(=O)N[C@@H](C)C(=O)N[C@@H](Cc1c[nH]cn1)C(=O)N[C@@H](CCCNC(=N)N)C(=O)N[C@@H](CC(N)=O)C(=O)O | YAP1 WW1 domain | binding, ITC |  | pH 7.0, 25 °C, WW1 domain |  | ΔH | -9.8 ± 0.28 kcal/mol

Molecule | target | test | test system | setting | scale | quantity | result
Clc1cccc(Nc2nnc(-c3ccccc3)c3ccccc23)c1 | PDE3A (Homo sapiens, UniProt Q14432) | cGMP hydrolysis, inhibitor, fluorescence polarization | recombinant enzyme | up to 100 µM, 30 min preincubation, 30 °C, with: TAMRA-cGMP 25 nM |  | IC50 | inactive
Nc1ncnc2c1ncn2[C@@H]1O[C@H](COP(=O)(O)OP(=O)(O)OP(=O)(O)O)[C@@H](O)[C@H]1O | ATP1A1 (Canis lupus familiaris, UniProt P50997) | binding, ligand dissociation kinetics | dog enzyme | Na+ 45 mM, 4 °C, Et3N+ replacement, total monovalent cation 500 mM, nitrate, preparation A |  | dissociation rate constant | 0.78 ± 0.1 s⁻¹
O=S(=O)(c1ccccc1OCC(F)(F)F)N1CC(c2nc(-c3ccc(F)cc3)no2)C1 | KCNT1 | ion current, activator, automated patch clamp | CHO | 30 µM | relative to: bepridil 60 µM | efficacy | 100%
IINFEKL | ERAP1 (Homo sapiens, UniProt Q9NZ08, F803R) | substrate | peptide | pH 8.0, 27 °C, mutant F803R, with: L-AMC, peptide activator 100 µM |  | K1/2 of L-AMC | ~0.19 mM and 0.2 mM
CSS(C)(=O)=O | Phosphoribosyl-AMP cyclohydrolase (hisI, Methanococcus vannielii, UniProt Q50837) | enzyme activity, covalent inactivator |  | 78 µM, pH 7.5, 4 °C |  | inactivation rate | 0.26 min⁻¹
CCCCCC[N+](CCCCCC)(CCCCCC)CCCCCC | Htr3a (Mus musculus, UniProt P23979) | 5-HT-induced current, inhibitor, two-electrode voltage clamp | Xenopus oocytes |  |  | IC100 | 500 µM
N=C(N)NC(=O)c1nc(Cl)c(N)nc1N | Degenerin mec-4 (mec-4, Caenorhabditis elegans, UniProt P24612, A713T) | ion current, two-electrode voltage clamp | Xenopus oocytes coexpressing MEC-2 | 30 µM, -85 mV | relative to: uninjected oocytes, positive inhibition, negative potentiation | current change | 6.71 µA
Oc1ccc(/C=C/c2ccc3ccccc3c2)cc1O | Transthyretin, fibrils (TTR, Homo sapiens, UniProt P02766) | binding, fluorescence emission |  | 1 µM, pH 3.0, with: 5 µM fibrils (monomer) | relative to: free compound | fluorescence increase | 3.1 fold
CC(C)C[C@H](NC(=O)[C@H](C)NC(=O)[C@@H](N)[C@@H](C)O)C(=O)N1CCC[C@H]1C(=O)N1CCC[C@H]1C(=O)N1CCC[C@H]1C(=O)N1CCC[C@H]1C(=O)N[C@@H](Cc1ccc(O)cc1)C(=O)N[C@@H](CCCNC(=N)N)C(=O)N[C@@H](Cc1c[nH]cn1)C(=O)N[C@@H](CCCNC(=N)N)C(=O)N[C@@H](CC(N)=O)C(=O)O | Transcriptional coactivator YAP1, WW2 domain (YAP1, Homo sapiens, UniProt P46937) | binding, ITC |  | pH 7.0, 25 °C, WW2 domain |  | ΔH | -10.3 ± 0.28 kcal/mol
CC(=O)[C@H]1CC[C@H]2[C@@H]3CCC4=CC(=O)CC[C@]4(C)[C@H]3CC[C@]12C | T2, DNA aptamer | probe displacement, competitor, microarray |  |  |  | binding | binds weakly
LIIGGG | Kelch domain-containing protein 2 | native mass spectrometry | peptide, 200 mM ammonium acetate | 20 µM Kelch domain-containing protein 2, pH 7 | relative to: total Kelch domain-containing protein 2 signal | fraction of protein bound | 3%
CC[C@H](C)[C@H](NC(=O)[C@@H]1CCCN1C(=O)[C@@H]1CCCN1C(=O)[C@@H]1CCCN1C(=O)[C@@H](NC(=O)[C@H](CC(N)=O)NC(=O)[C@@H](N)Cc1ccccc1)[C@@H](C)CC)C(=O)N[C@@H](Cc1ccc(O)cc1)C(=O)N[C@H](C(=O)N[C@@H](CO)C(=O)N[C@@H](CCCNC(=N)N)C(=O)N[C@@H](C)C(=O)O)[C@@H](C)O | YAP1 WW1 domain | binding, ITC |  | pH 7.0, 25 °C, WW1 domain |  | ΔG | -5.4 ± 0.09 kcal/mol
Clc1ccccc1SSc1ccccc1Cl | tubulin | colchicine binding, [3H]colchicine binding |  | 5 µM, 10 min, 37 °C, with: [3H]colchicine 5.0 µM |  | inhibition | 15 ± 5%
CC(C)C[C@H](NC(=O)[C@@H](NC(=O)[C@@H](N)[C@@H](C)O)C(C)C)C(=O)N[C@@H](C)C(=O)N1CCC[C@H]1C(=O)N1CCC[C@H]1C(=O)N1CCC[C@H]1C(=O)N[C@@H](Cc1ccc(O)cc1)C(=O)N[C@@H](CCCNC(=N)N)C(=O)N[C@@H](Cc1c[nH]cn1)C(=O)N[C@@H](CCCNC(=N)N)C(=O)N[C@@H](CC(N)=O)C(=O)O | YAP1 WW1 domain | binding, ITC |  | pH 7.0, 25 °C, WW1 domain |  | ΔG | -5.68 ± 0.12 kcal/mol
C/C(=N/N=c1/scc(-c2ccc(Br)cc2)n1-c1c(C)cccc1C)c1ccc2c(c1)NC(=O)CO2 | Aldo-keto reductase family 1 member A1 (Bos taurus, UniProt Q3ZCJ2) | enzyme activity, inhibitor, absorbance |  | 1 mM |  | inhibition | 12.4%

Excerpt of the above:
Molecule | target | test | test system | setting | scale | quantity | result
CC(C)C[C@H](NC(=O)[C@@H](NC(=O)[C@@H](N)[C@@H](C)O)C(C)C)C(=O)N1CCC[C@H]1C(=O)N1CCC[C@H]1C(=O)N1CCC[C@H]1C(=O)N1CCC[C@H]1C(=O)N[C@@H](Cc1ccc(O)cc1)C(=O)N[C@@H](C)C(=O)N[C@@H](Cc1c[nH]cn1)C(=O)N[C@@H](CCCNC(=N)N)C(=O)N[C@@H](CC(N)=O)C(=O)O | YAP1 WW1 domain | binding, ITC |  | pH 7.0, 25 °C, WW1 domain |  | ΔH | -9.8 ± 0.28 kcal/mol
CSS(C)(=O)=O | Phosphoribosyl-AMP cyclohydrolase (hisI, Methanococcus vannielii, UniProt Q50837) | enzyme activity, covalent inactivator |  | 78 µM, pH 7.5, 4 °C |  | inactivation rate | 0.26 min⁻¹
CC(C)C[C@H](NC(=O)[C@H](C)NC(=O)[C@@H](N)[C@@H](C)O)C(=O)N1CCC[C@H]1C(=O)N1CCC[C@H]1C(=O)N1CCC[C@H]1C(=O)N1CCC[C@H]1C(=O)N[C@@H](Cc1ccc(O)cc1)C(=O)N[C@@H](CCCNC(=N)N)C(=O)N[C@@H](Cc1c[nH]cn1)C(=O)N[C@@H](CCCNC(=N)N)C(=O)N[C@@H](CC(N)=O)C(=O)O | Transcriptional coactivator YAP1, WW2 domain (YAP1, Homo sapiens, UniProt P46937) | binding, ITC |  | pH 7.0, 25 °C, WW2 domain |  | ΔH | -10.3 ± 0.28 kcal/mol
